Measurements gathered from unrelated publications.
Protocols differ between the studies behind these lines. “And” joins repeats or separate records; there may be more than shown. Numbers after ± are the reported error.

CCOC(=O)C1(Cc2ccc(F)cc2)Oc2cc(F)ccc2N(Cc2ccc(F)cc2)C1=O (stereo not drawn)  inhibition (Setaria viridis; fresh weight, greenhouse postemergence; postemergence, 150 g ai/ha, 21 days): 56.02 ± 0.54%
O=S(=O)(c1ccc(-c2ccc3ncnc(Nc4ccc(OCc5cccc(F)c5)c(Cl)c4)c3c2)cc1)N1CCCCC1  inhibition (Trypanosoma cruzi; intracellular amastigote growth; NIH 3T3, Tulahuen, β-galactosidase-expressing; 10 µM, 96 h): 1%
CCN(CC)CCO.O=C(O)C(Cl)Cl  inhibition (Solanum nigrum; herbicidal activity; 15 mg/mL, 21 days, post-emergence greenhouse): 38%
c1ccc(COc2ccc(Nc3ncnc4ccc(-c5cccc(N6CCOCC6)c5)cc34)cc2)cc1  inhibition (Trypanosoma cruzi; intracellular amastigote growth, β-galactosidase CPRG; 3T3, Tulahuen, β-galactosidase-expressing; 10 µM, 96 h): 37%
CCc1nn(C)c2nc(-c3ccc(C(=O)O)cc3)nc(NCc3ccccc3)c12  inhibition (Cryptosporidium parvum; parasite growth, immunofluorescence imaging; HCT-8, Iowa; 8.22 nM): -23.9% and -6.18%
Fc1cccc(COc2ccc(Nc3ncnc4ccc(-c5cccc(-n6cccn6)c5)cc34)cc2Cl)c1  inhibition (Trypanosoma cruzi; intracellular amastigote growth; NIH 3T3, Tulahuen, β-galactosidase-expressing; 10 µM, 96 h): 10%
CCOC(=O)C1(Cc2ccccc2F)Oc2cc(F)ccc2N(Cc2ccccc2F)C1=O (stereo not drawn)  inhibition (Setaria viridis; fresh weight, greenhouse postemergence; postemergence, 150 g ai/ha, 21 days): 44.9 ± 2.02%
CC(O)CN(CC(C)O)CC(C)O.O=C(O)C(Cl)Cl (stereo not drawn)  inhibition (Solanum nigrum; herbicidal activity; 15 mg/mL, 21 days, post-emergence greenhouse): -39%
CCOC(=O)C1(Cc2ccc(C#N)cc2)Oc2cc(F)ccc2N(Cc2ccc(C#N)cc2)C1=O (stereo not drawn)  inhibition (Setaria viridis; fresh weight, greenhouse postemergence; postemergence, 150 g ai/ha, 21 days): 61.5 ± 0.89%
O=C(NNc1ccc(Cl)cc1)c1nnc(CC23CC4CC(CC(C4)C2)C3)o1  inhibition (Rhizoctonia solani; microbial growth; 50 µg/mL): 68.7%
O=S(=O)(c1ccc(-c2ccc3ncnc(Nc4ccc(OCc5cccc(Br)c5)c(Cl)c4)c3c2)cc1)N1CCOCC1  inhibition (Trypanosoma cruzi; intracellular amastigote growth, β-galactosidase CPRG; 3T3, Tulahuen, β-galactosidase-expressing; 10 µM, 96 h): 7%
CCOC(=O)C1(Cc2ccccc2)Oc2ccccc2N(Cc2ccccc2)C1=O (stereo not drawn)  inhibition (Setaria viridis; fresh weight, greenhouse postemergence; postemergence, 150 g ai/ha, 21 days): 53 ± 1.82%

For quick reference, copied from above:
O=S(=O)(c1ccc(-c2ccc3ncnc(Nc4ccc(OCc5cccc(F)c5)c(Cl)c4)c3c2)cc1)N1CCCCC1  inhibition (Trypanosoma cruzi; intracellular amastigote growth; NIH 3T3, Tulahuen, β-galactosidase-expressing; 10 µM, 96 h): 1%
